# Results gathered from unrelated publications.
# Numbered parts are unrelated; each lists some results of a single study.

# Sample 1 — method: RNA Bind-n-Seq; molecule type: RNA; sample: in vitro; concentration: 365 nM; relative to: no-protein control; reading: higher = stronger binding
# Target: RNA binding protein fox-1 homolog 2, RRM domain, GST-SBP tag (RBFOX2, Homo sapiens, UniProt O43251-10, residues 100-194)
# Setting: natural RNA segment, single round, ends assumed
# Construct (chain): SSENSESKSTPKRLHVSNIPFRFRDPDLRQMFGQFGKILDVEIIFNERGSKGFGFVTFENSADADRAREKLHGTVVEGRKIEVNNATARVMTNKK
Sequence,RBNS enrichment (R)
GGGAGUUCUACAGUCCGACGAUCUCAAAGCUUUAUUCUGUCUGCCUAAGAGAAUCAACCAAAGGUGAUUCUCCUAAAGAGCAGUGAAGGAAAUGUCAGGUUAGCAGGACCCAAGUUUUGGGUGUGAAAUGUUGUGGAAUUCUCGGGUGCCAA,0.34
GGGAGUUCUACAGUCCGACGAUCUGUGGACUCUUGGCCCAGGAAUCCACAAUAAUAGCUAGUGGUAGAAUUGGGAUGUAGCCUGAUUAUAUAGAUUCCAAGGUAGUCCUCUGUCUAUCCUAAAAGUAGAUUAGUGGAAUUCUCGGGUGCCAA,0.458
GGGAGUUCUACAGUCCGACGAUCGCCUGAAGUGCAGCCUUCACCAGGGCAUUGUCUCUGCUGGUGUCAGUGACCCACAUUGAUGAGUGGUCUGAGCAGCUGGUGGGUUACUUUACCCAGUGUGUUCCUGCAUUUGGAAUUCUCGGGUGCCAA,0.397
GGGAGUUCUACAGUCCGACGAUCGGACUGAAGCAGCCUGGUUUUAGAGUGUAGCUGUAAGGGCAGUGCCCGUGUGUACAGUCUGUGGAGUUUAGCUUAACGGGCAGGGCCCACAUGUACAGUGUCUGUAUAUAUGGAAUUCUCGGGUGCCAA,0.576
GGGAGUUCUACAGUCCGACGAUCUUUAAUUACUGCUGUAUAUUUGUUGAUUUUGGAGUUACAACUGUGGUGAUAGAAAAUUGAGUUGAUGGUCUGUACCAAGUCCCUUGUCUAUGUUCUUGUCUUUCAGAAUAUGGAAUUCUCGGGUGCCAA,2.65
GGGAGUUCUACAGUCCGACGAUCUUAUGAGGCUUUCAAUCGUGGAAGCUCAGGAGGGAAUGGUCCUGAUAGUGACAUCUGGGACCCCAGGCCUCUGAAGCAUUUGCAGCCUCCUCAGGAGGGUGAGGGCCAUCUGGAAUUCUCGGGUGCCAA,0.344
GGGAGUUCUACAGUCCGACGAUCUAUAAAUUAAUCCAGGUUGUGUUAAUACAGCAGUUUUCCUAGGCCCAAAAGGUUACUCUCAUAACAUAAGCUAGCCCCUUCCGGAAGUCAUGGUGGUGGGUUUCUAUCAUUGGAAUUCUCGGGUGCCAA,0.286
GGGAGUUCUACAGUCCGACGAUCCCUAGAGCUAGCAGUCCUCAUCCAGGCAACCGAGGGCAGUGGUUUUGUUUGUGUUCUUGGCUGUUCCUAAAGCUUGCCCUUUGAGUAUUAUCAGGAGAACCCAAGCUGUCUGGAAUUCUCGGGUGCCAA,1.75
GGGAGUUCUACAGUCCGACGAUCCCUGCCUAAGCAGGGUGGGGGCAGAGCCAUGACAUUUUUGGUUUAAAGGAGCCUUCUCAUCUCUGGCCGAGAACACUGCUGGGCUCCCAGGUAGCUGAAGGCCUCAGCCCUGGAAUUCUCGGGUGCCAA,0.312
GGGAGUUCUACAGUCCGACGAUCCCCAGUGAAACUCUGAAAUUAUCUGAAAAAUGUAUAUAGUAGCUAAAGGGGGAAUCUUAUAAAAUCCUGUGCAAUAGACAUACAUAGCUGUACUCAGAAGGGCUGUCUUCUGGAAUUCUCGGGUGCCAA,0.334
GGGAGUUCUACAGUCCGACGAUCGCCGGGUCUGCCUCUUCUGGGAGGGCAGCAGGGCUACCCUGAGCUGAGGCAGCAGUGUGAGGCCAGGGCAGAGUGAGACCCAGCCCUCAUCCCGAGCACCUCCACAUCCUUGGAAUUCUCGGGUGCCAA,0.293
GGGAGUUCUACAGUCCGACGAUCGGUGUGGAUAAGGAAGGCUCCAGCGUCCGGGGCACUGCCCUUCCAGCAAGUUCCAAGCGCACUUUUGCAUUUGCCGAGCAGACUUUUGCAGAGCCGGUGGCAGAAGCAGUUGGAAUUCUCGGGUGCCAA,0.32

# Sample 2 — method: RNA Bind-n-Seq; molecule type: RNA; sample: in vitro; concentration: 20 nM; setting: 6-mer, flanks averaged, single round; with: 150 mM KCl; relative to: input library; reading: higher = stronger binding
# Target: TAR DNA-binding protein 43, full length, His tag (TARDBP, Homo sapiens, UniProt Q13148, residues 1-414)
Sequence,6-mer enrichment (R)
CACAAC,0.653
CUGCGG,1.6
UAUUAU,0.635
GCAUUA,0.637
CGGUCA,0.793
CAGGAA,0.897
ACGCCA,0.697
GCCAAC,0.773
GCUGGG,3.81
AUUAUG,0.672
GAUGCU,0.783
CAAUUU,0.643
GAGUUA,0.816
GGUAAA,1.03
AUGCAC,0.695
GGAACG,2.07

# Sample 3 — method: protein-binding microarray; molecule type: double-stranded DNA, one strand shown; sample: in vitro; concentration: 2540 nM top; setting: 60-bp whole probe; with: salmon DNA 0.4 mg/ml; relative to: random background probes; reading: higher = stronger binding; all sequences stand within: GCCTAGCAC … GTCTTGATTCGCTTGACGCTGCTG
# Target: Interferon regulatory factor 3, full length, phosphomimetic (IRF3, Homo sapiens, UniProt Q14653, residues 1-427, S386D/S396D/S398D/S402D/T404D/S405D)
# Target sequence (chain): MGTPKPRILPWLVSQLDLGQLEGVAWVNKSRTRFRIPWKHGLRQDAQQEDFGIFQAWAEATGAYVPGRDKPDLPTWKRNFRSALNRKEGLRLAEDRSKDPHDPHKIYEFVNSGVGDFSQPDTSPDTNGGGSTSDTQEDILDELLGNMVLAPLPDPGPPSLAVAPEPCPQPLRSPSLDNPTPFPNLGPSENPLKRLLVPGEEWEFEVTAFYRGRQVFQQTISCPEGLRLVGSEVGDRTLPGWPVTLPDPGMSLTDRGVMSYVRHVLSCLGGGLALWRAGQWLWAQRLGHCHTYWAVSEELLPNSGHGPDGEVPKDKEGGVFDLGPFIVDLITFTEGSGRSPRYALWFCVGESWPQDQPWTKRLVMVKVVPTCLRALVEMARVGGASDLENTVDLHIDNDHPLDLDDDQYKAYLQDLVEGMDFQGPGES
Sequence,fitted relative affinity [z-score]
GACGGACTGGGGTATGGGGACGTGCTA,-0.831
TCATCTCCGGGGTCTGTGACTGTGCTA,0.113
TTTTTTTTGCAAGCTAAAAAAGTGCTA,1.09
GACGGTTTCGACACTTGGGACGTGCTA,2.88
TTTGGTCTCCTTCTCCTTTAGTGCTAG,4.42
TTAGGACTGGGTATCTGTTAGTGCTAG,-0.344
TCATTTTTTTTTTTTTAACTGTGCTAG,1.25
TTAGGTCTACTTTTCCTTTAGTGCTAG,1.78
TTAGGTATCGGGAGTGGGTTAGTGCTA,0.28
GACGGTCCCCTTTTCCTGACGTGCTAG,2.6
ATGATTGGTTGAACATGAACGTGCTAG,-0.24
GACGATTTCCGTTTCGAGACGTGCTAG,5.65
CATGCTCTTATATACCTGTATGTGCTA,0.476
TCATTGGTTGAACATGAACTGTGCTAG,-0.322
TTAGGTATCGGTATCGCTTAGTGCTAG,4.57
TTAGGTATCGACACTGGCTTAGTGCTA,0.143
GACGGTTTCGGGACTTGGGACGTGCTA,4.22
TCTGTCCTGATAGCCCTGGCGTGCTAG,0.337
TTAGGTATCGACTATCGGTTAGTGCTA,0.564
TCAGGACTCAGGTCTCCCACTGTGCTA,0.151
TTAGAACTGAGACTTGATTAGTGCTAG,-0.472
TTGGGTATCGGGTATCGGTTAGTGCTA,1.21

# Sample 4 — method: RNA Bind-n-Seq; molecule type: RNA; sample: in vitro; concentration: 200 nM; setting: whole 134-nt RNA, ends assumed; with: 150 mM KCl; relative to: input library; reading: higher = stronger binding
# Target: Fragile X messenger ribonucleoprotein 1, C-terminal low-complexity region (Fmr1, Mus musculus, UniProt P35922)
Sequence,log2 enrichment
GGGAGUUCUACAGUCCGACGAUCUCCUGUGCUACACAUCGUAUGUACCGAAUCGGGGUUUUUGGGGAGGGGAAAAAAAGGGGAAAGUAUUAUGUUACGCCGUUCGGAUCUGCAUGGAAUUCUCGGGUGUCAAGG,0.454
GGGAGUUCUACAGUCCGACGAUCCUCAAGUCCUGUGCUACACAUCGUAUGUACCGAAUCGGGAAGGGAAGGGAAGGGAAAGUAUUAUGUUACGCCGUUCGGAUCUGCACUUCCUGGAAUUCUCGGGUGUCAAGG,0.957
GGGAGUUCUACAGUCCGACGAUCCUCAAGUCCUGUGCUACACAUCGUAUGUACCGAAUCGGGAGGGUUUGGGUGGGAAAGUAUUAUGUUACGCCGUUCGGAUCUGCACUUCCAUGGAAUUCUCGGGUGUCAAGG,1.46
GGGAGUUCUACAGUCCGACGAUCCACAGACAACACGCACCCACACAGACACAGAGGGAAGGGGUUGGGAUGGGGACAGGGUGCACAGCAGGGCGGUGUAGGACCCCAGCCCCUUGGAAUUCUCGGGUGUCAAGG,1.04
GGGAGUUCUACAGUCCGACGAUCUAACUUUAGAGGAGGAUCUGAUGGAUAUGGCAGUGGACGUGGAUUUGGGGAUGGCUAUAAUGGGUAUGGAGGAGGACCUGGAGGUGGGAAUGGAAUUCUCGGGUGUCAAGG,0.29
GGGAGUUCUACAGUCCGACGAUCCACAGACAACACGCACCCACACAGACACAGAGGGAAGGGGUUGGGAUGGGGACAGGGUGCACAGCAGGGCGGGGCAGGACCCCAGCCCCUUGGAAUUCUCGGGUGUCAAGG,1.26
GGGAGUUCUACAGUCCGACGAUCACCAUGCAGGUGGGCAUCUUUGGGAAGUGGGGCAAGGGGGGGAUAGGGAGGGGGGUAACACUUUGGGAACAUGUGGUCCCAGGUCGUUUCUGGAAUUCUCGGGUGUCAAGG,0.848
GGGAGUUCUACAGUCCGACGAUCCCUGUGCUACACAUCGUAUGUACCGAAUCGGGAAAAAAAGGGUUUUUUUGGGAAAAAGGGAAAGUAUUAUGUUACGCCGUUCGGAUCUGCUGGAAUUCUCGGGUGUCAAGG,-0.956
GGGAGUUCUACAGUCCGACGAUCUCACUUUAGAGGAGGAUCUGAUGGAUAUGGCAGUGGACGUGGAUUUGGGGAUGGCUAUAAUGGGUAUGGAGGAGGACCUGGAGGUGGCAAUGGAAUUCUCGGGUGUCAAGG,0.317
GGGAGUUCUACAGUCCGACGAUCGCAGGAAGUAAAAACAAAUGGAAAUGCUUCGGAUAGUGGCAGGGGUGGGGGUUGCUAAGGAAAGGGUGGGAUGCGAGUGGGUAAAGAGUUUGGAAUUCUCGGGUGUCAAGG,0.417

# Some of these lines once more (sample 1):
Sequence,RBNS enrichment (R)
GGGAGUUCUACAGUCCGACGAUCGCCUGAAGUGCAGCCUUCACCAGGGCAUUGUCUCUGCUGGUGUCAGUGACCCACAUUGAUGAGUGGUCUGAGCAGCUGGUGGGUUACUUUACCCAGUGUGUUCCUGCAUUUGGAAUUCUCGGGUGCCAA,0.397
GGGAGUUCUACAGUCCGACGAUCUUAUGAGGCUUUCAAUCGUGGAAGCUCAGGAGGGAAUGGUCCUGAUAGUGACAUCUGGGACCCCAGGCCUCUGAAGCAUUUGCAGCCUCCUCAGGAGGGUGAGGGCCAUCUGGAAUUCUCGGGUGCCAA,0.344
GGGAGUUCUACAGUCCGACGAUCGGACUGAAGCAGCCUGGUUUUAGAGUGUAGCUGUAAGGGCAGUGCCCGUGUGUACAGUCUGUGGAGUUUAGCUUAACGGGCAGGGCCCACAUGUACAGUGUCUGUAUAUAUGGAAUUCUCGGGUGCCAA,0.576
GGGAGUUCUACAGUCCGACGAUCCCCAGUGAAACUCUGAAAUUAUCUGAAAAAUGUAUAUAGUAGCUAAAGGGGGAAUCUUAUAAAAUCCUGUGCAAUAGACAUACAUAGCUGUACUCAGAAGGGCUGUCUUCUGGAAUUCUCGGGUGCCAA,0.334
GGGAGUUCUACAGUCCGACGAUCUAUAAAUUAAUCCAGGUUGUGUUAAUACAGCAGUUUUCCUAGGCCCAAAAGGUUACUCUCAUAACAUAAGCUAGCCCCUUCCGGAAGUCAUGGUGGUGGGUUUCUAUCAUUGGAAUUCUCGGGUGCCAA,0.286
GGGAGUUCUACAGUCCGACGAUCUUUAAUUACUGCUGUAUAUUUGUUGAUUUUGGAGUUACAACUGUGGUGAUAGAAAAUUGAGUUGAUGGUCUGUACCAAGUCCCUUGUCUAUGUUCUUGUCUUUCAGAAUAUGGAAUUCUCGGGUGCCAA,2.65
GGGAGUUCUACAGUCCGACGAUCCCUAGAGCUAGCAGUCCUCAUCCAGGCAACCGAGGGCAGUGGUUUUGUUUGUGUUCUUGGCUGUUCCUAAAGCUUGCCCUUUGAGUAUUAUCAGGAGAACCCAAGCUGUCUGGAAUUCUCGGGUGCCAA,1.75
